Measurements gathered from unrelated publications.
Every numbered part comes from another study and shows a few of its results, in no order. Changes are numbered by the printed parent chain.

Study 1 — method: protein-binding microarray; form: double-stranded DNA, one strand shown; sample: in vitro; tested at: 0.8 µM; notes: whole 60-bp probe, no competitor; direction: higher = stronger binding
Target: Centromere-binding protein 1, full length, N-terminal tag (CBF1, Saccharomyces cerevisiae, UniProt P17106, residues 1-351)
UniProt P17106, sequence (whole entry, looked up): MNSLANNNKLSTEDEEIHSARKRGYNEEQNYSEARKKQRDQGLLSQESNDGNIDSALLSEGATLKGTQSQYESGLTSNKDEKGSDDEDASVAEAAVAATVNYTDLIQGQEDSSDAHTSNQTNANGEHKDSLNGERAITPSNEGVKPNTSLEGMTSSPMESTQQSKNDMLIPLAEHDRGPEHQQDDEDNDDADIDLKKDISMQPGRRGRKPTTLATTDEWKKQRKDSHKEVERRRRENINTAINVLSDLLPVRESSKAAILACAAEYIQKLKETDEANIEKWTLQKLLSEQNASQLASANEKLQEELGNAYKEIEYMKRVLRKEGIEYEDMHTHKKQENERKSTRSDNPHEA
`GAAGTGTGTCCCACACTCGTGGCACGTTTTCTTTAGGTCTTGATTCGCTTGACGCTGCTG` gave a fluorescence intensity of 1040 a.u.
For `CCTAACTACTATAGATTTAATATATAGCTTCGTACAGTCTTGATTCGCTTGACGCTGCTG`, the fluorescence intensity was 515 a.u.
`TGTACGAAGCTATACACGTGTACTATAGTAGTTAGGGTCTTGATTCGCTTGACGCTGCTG` has a fluorescence intensity of 5150 a.u.
The fluorescence intensity of `CTAACTCCAATTAAGCACCACCTAGTGCGTCTATTCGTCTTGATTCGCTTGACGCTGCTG` is reported as 486 a.u.
The fluorescence intensity of `GAACATTTATAAAGATGTCACATGGACCACTATTAGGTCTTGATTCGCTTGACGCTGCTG` is reported as 3320 a.u.
With `GAAAGCTGGTGTGGACATGACGCTTTATCTTTTTAGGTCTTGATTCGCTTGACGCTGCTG` the fluorescence intensity was 537 a.u.
The fluorescence intensity of `GAAGTTCTGTTTACTGGTGACAAGAATTAAAAATAGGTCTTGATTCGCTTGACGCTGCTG` is reported as 632 a.u.
For `CTAAGACGTTGGAAACACGCAACGTCTTTTTTGTTCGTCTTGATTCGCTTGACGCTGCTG`, the fluorescence intensity was 526 a.u.
The fluorescence intensity of `GAATCAGGTCCGGGTCACACCACTACCCTTACTTAGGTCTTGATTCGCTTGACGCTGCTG` is reported as 925 a.u.
With `CTATAGCTTCATCCAGGTGAGCCCGCAAACATTTTCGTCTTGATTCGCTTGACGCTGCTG` the fluorescence intensity was 544 a.u.
`GAAACTCCATCCTCAATCGTGATTGTGCGTGCGTAGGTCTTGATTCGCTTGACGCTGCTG` has a fluorescence intensity of 508 a.u.
With `TGTACGAAGCTATTTTATGTGATTATAGTAGTTAGGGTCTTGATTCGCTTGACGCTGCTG` the fluorescence intensity was 495 a.u.
With `CTACGCTGATATCTGCACATGTGAGTAACGCAGTTCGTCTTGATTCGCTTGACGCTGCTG` the fluorescence intensity was 1330 a.u.
`GAAAATTCCCCTCTTCTGATGCTTAATTGCCCCTAGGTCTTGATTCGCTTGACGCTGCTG` gave a fluorescence intensity of 494 a.u.
With `GAATAGAATTTTTTCCACGCGCTCTCGATCAATTAGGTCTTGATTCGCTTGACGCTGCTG` the fluorescence intensity was 574 a.u.
`GAATATAATATGGTTCACGTGCGCTTCATCTTTTAGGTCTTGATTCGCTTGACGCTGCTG` has a fluorescence intensity of 4440 a.u.
For `CTATATTGAGTTTGCCACATGAGCGGTATACGATTCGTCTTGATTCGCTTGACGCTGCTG`, the fluorescence intensity was 557 a.u.

Study 2 — method: DHFR PCA, deep sequencing; sample: yeast; added: (+)-ABA 4.8 µM; baseline: wild-type fitted maximum; direction: higher = stronger binding
Target: ABI1, truncated, D143A, DHFR fusion (Arabidopsis thaliana)
Notes: methotrexate growth selection, single substitutions
Starting sequence: PYL1, truncated, DHFR fusion (Arabidopsis thaliana); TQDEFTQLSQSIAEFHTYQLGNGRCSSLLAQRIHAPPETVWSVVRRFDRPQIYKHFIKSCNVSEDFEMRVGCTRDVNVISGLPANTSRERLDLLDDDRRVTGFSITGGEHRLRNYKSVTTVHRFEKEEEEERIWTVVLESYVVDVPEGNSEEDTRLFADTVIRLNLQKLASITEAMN; partner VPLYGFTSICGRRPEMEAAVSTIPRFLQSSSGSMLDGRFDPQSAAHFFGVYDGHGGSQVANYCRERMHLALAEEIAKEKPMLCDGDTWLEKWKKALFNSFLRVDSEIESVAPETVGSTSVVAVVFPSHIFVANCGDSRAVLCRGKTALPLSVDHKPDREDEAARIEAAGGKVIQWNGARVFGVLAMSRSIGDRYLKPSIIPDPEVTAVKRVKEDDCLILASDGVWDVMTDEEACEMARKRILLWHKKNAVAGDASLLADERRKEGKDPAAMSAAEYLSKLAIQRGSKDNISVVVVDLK
`T39Y`: “relative binding score” 52.1%.
For `R32D`, “relative binding score” read 25.4%.
Under “relative binding score”, `W134N` is recorded as 58%.
Under “relative binding score”, `F47E` is recorded as -7.23%.
Under “relative binding score”, `S9L` is recorded as 50.7%.
Under “relative binding score”, `E89G` is recorded as 9.2%.
`R46L`: “relative binding score” 24.1%.
For `W41K`, “relative binding score” read -4.93%.
`N85Y` — result for “relative binding score”: 68.2%.
`E128L` — result for “relative binding score”: 59.2%.
`L138K`: “relative binding score” -40.6%.
Under “relative binding score”, `T135Q` is recorded as -12.8%.
For `D159S`, “relative binding score” read 26.6%.

Study 3 — target: CCNE1, cyclin fold, Cln2 fusion (human); method: yeast growth competition, sequencing; sample: yeast; notes: strong parent motif; baseline: not given; direction: higher = stronger binding
Starting sequence: BRCA2 docking peptide (human); CKKRRALDFLSRL
`CKKRRALAFLSRL [D8A]` — result for “normalised enrichment score”: 1.16.
For `CKKRAALDFLSRL [R5A]`, “normalised enrichment score” read 1.7.
For `CKKRKALDFLSRL [R5K]`, “normalised enrichment score” read 0.707.
Under “normalised enrichment score”, `CKKRRAADFLSRL [L7A]` is recorded as 1.37.
`CKKRRALDFLARL [S11A]` — result for “normalised enrichment score”: 1.68.
Under “normalised enrichment score”, `CKKARALDFLSRL [R4A]` is recorded as 0.518.
`AKKRRALDFLSRL [C1A]`: “normalised enrichment score” 0.957.

Single results of other studies
For `PhoQ, residues 284 288 289 292 302 303 NSMLDC`, the fold induction was 11.6 (PhoP, residues 12 14 15 18 19 NQFFI (Escherichia coli, UniProt P23836); Sort-seq, refers to: YFP reporter; E. coli; PhoQ-PhoP variant library, added: 10 µM Mg2+; baseline: high Mg2+ state, higher = stronger signaling).

A few entries again (study 2):
Under “relative binding score”, `S9L` is recorded as 50.7%.
`T39Y`: “relative binding score” 52.1%.
Under “relative binding score”, `T135Q` is recorded as -12.8%.
For `R32D`, “relative binding score” read 25.4%.
Under “relative binding score”, `E89G` is recorded as 9.2%.
